Values quoted from earlier work, collected from citations in different studies.
Protocols differ between the studies behind these lines. Numbers after ± are the reported error.

Structure (SMILES)	target	test	system	conditions	IC50
COc1ccc2c(/C=C(\C)C(=O)c3cc(OC)c(OC)c(OC)c3)c[nH]c2c1	tubulin	tubulin polymerization			2680 nM
Cc1ccc(-c2csc3nnc(SCC(=O)Nc4ccc5c(c4)OCO5)n23)cc1	IDO1	enzyme activity, inhibitor			3000 nM
COc1ccc2nc3cc(Cl)ccc3c(NCCCCNc3nc(N)nc(N)n3)c2c1	MBNL1–CUG repeat RNA complex	complex formation, inhibitor			43000 nM
CCCC/C(=C(\c1ccccc1)c1ccc(S(C)(=O)=O)cc1)c1ccccc1	cyclooxygenase-2	enzyme activity, inhibitor			14 nM
COc1ccc(C(=O)N2CCC(CN3CCC(O)(c4ccccc4)CC3)C(c3ccc4ccccc4c3)C2)c(OC)c1 (stereo not shown)	PilF	inhibitor			175000 nM
CN(C)c1cc(Cl)c(C(=O)N(Cc2ccccc2)c2ccc(O)c(C(C)(C)C)c2)c(Cl)c1	farnesoid X receptor	antagonist			3400 nM
O=C(Nc1cccc(OCC2CCCN2)n1)Nc1csc(-c2ccncc2)n1 (stereo not shown)	CDK1	ATP-competitive inhibitor			8 nM
Cc1cc(C(=O)N[C@H](C(=O)N[C@@H](Cc2ccc(F)cc2)C(=O)N[C@H](/C=C/C(=O)OCc2ccnc3ccccc23)CCC(N)=O)C(C)C)no1	coxsackievirus B3 3C protease	inhibitor			130 nM
OC1CCCC1n1cc(-c2cnn3ccc(N4CCC[C@@H]4c4cc(F)ccc4F)nc23)cn1 (stereo partly shown)	TRKA G595R	inhibitor			1.02 nM
CCCCCCCCCCCCCC(=O)N[C@@H](CO)C(=O)N[C@H](C(=O)N[C@@H](Cc1ccc(O)cc1)C(=O)N[C@@H](CCCNC(=N)N)C(=O)N[C@@H](CCCNC(=N)N)C(=O)NCC(=O)N[C@@H](C)C(=O)N[C@@H](CCCNC(=N)N)C(=O)N[C@@H](CCCNC(=N)N)C(=O)N[C@@H](Cc1c[nH]c2ccccc12)C(=O)N[C@@H](CCCNC(=N)N)C(=O)N[C@@H](CCCCN)C(=O)N[C@@H](CC(C)C)C(=O)O)[C@@H](C)CC	atypical PKC	MARK2 phosphorylation, inhibitor			~20000 nM
COc1ccc2c(OCc3nnc4ccc(-c5cc(F)c(F)c(F)c5)nn34)ccnc2c1	c-Met kinase (MET)	inhibitor			4 ± 1 nM
C[C@@H]1O[C@@H](CC(=O)O)CC2=C1C(=O)c1c(O)cccc1C2=O	DNMT3B				500 nM
Cc1nn(-c2ccc(F)cc2)c2ncnc(Nc3ccc(F)c(Cl)c3)c12	HER2				250 nM
O=C(c1ccc(Br)cc1)[C@H]1[C@H](c2cn(-c3ccccc3)nc2-c2ccccc2)C2CC3CCCCC3N2[C@]12C(=O)Nc1ccc(Cl)cc12 (stereo partly shown)	CDK2	enzyme activity, inhibitor			35 nM
Nc1cc(COc2c(Cl)cc(C[C@H](N)C(=O)O)cc2Cl)c2oc(-c3ccccc3)nc2c1	LAT1 human	L-leucine uptake	HT-29	together with: [14C]-L-leucine	60 nM
O=C(O)CCCc1ccccc1	HDAC6				240000 nM
CC1(C)Cc2cc(Cl)ccc2C(NC(Cc2ccccc2)c2nc3ccccc3c(=O)[nH]2)=N1 (stereo not shown)	BACE1	AlphaScreen			170 nM
CCC[C@@H]1N[C@@H](CO)[C@@H](O)[C@H](O)[C@H]1O	Escherichia coli beta-glucuronidase	enzyme activity			586000 nM
O=C(NO)c1ccc(NC(=O)[C@@H](NC(=O)c2ccccc2)c2ccccc2)cc1	HDAC	enzyme activity	HeLa nuclear extract		28.7 nM

Structure (SMILES)	target	test	system	conditions	IC50
CSC(=O)OCC1=CC(O)C2C(C(=O)O)=COC(OC3OC(CO)C(O)C(O)C3O)C12 (stereo not shown)	P2Y14 receptor	antagonist			8290 nM
CNC(=O)C1CCN(C(=O)CCC(=O)N(CC(C)(C)C)c2ccc(Cl)cc2C(O)c2ccccc2Cl)CC1 (stereo not shown)	squalene synthase (rat)	enzyme activity, inhibitor	rat hepatocytes		1.3 nM
C/C(=N\NC(=O)C1=C(O)c2ccccc2S(=O)(=O)N1Cc1nc2ccccc2[nH]1)c1ccccc1	ENPP3	inhibitor			150 nM
Cc1cc(C)c(CNC(=O)c2c(O)c(O)cc3c(O)c(-c4c(C)cc5c(C(=O)NCc6c(C)cc(C)cc6C)c(O)c(O)cc5c4O)c(C)cc23)c(C)c1	Bcl-2 (human)	binding, fluorescence polarization		together with: fluorescent BH3 Bid peptide	~1000 nM
O=C(Nc1ccc(Cl)c(-c2nc3ncccc3o2)c1)c1cccs1	Plasmodium falciparum ENT1	[3H]adenosine uptake	PfENT1-expressing yeast		38.4 ± 16.5 nM
c1ccc(-c2[nH]c3ccccc3c2C2CC(c3ccccn3)=NN2)cc1 (stereo not shown)	lipoxygenase	enzyme activity, inhibitor			3840 ± 10 nM
Cc1ccc(S(=O)(=O)Nc2ccc(-c3ccnc(Nc4ccc(S(=O)(=O)Nc5ncccn5)cc4)c3C#N)cc2)cc1	CDK2	enzyme activity, inhibitor			1790 nM
O=C1CCc2ccc(OCc3cccc(Br)c3)cc2N1	monoamine oxidase B	enzyme activity, inhibitor			2.9 nM
N#Cc1ccc(-c2csc(N3N=C(c4ccc(N5CCOCC5)cc4)CC3c3ccc(Cl)cc3)n2)cc1 (stereo not shown)	HER2	inhibitor			2300 nM
COc1cc(F)c(C(C)C)cc1C1=C(CN2C(=O)O[C@H](c3cc(C(F)(F)F)cc(C(F)(F)F)c3)[C@@H]2C)CC(C)(C)CC1	CETP	ex vivo CETP activity, inhibitor	cynomolgus monkey	single dose 0.1 to 30 mg/kg	83 nM
CC(C)(Sc1nc2ncccc2n1Cc1ccc(Br)c2ccccc12)C(=O)O	URAT1	inhibitor			1360 nM
CC(C)[C@H](NC(=O)[C@H](C)NC(=O)[C@H](Cc1c[nH]c2ccccc12)NC(=O)[C@H](Cc1c[nH]cn1)NC(=O)CCc1ccccc1)C(=O)N[C@H](C)C(=O)N[C@@H](Cc1c[nH]cn1)C(=O)N1CCC[C@@H]1CN[C@@H](Cc1ccccc1)C(N)=O	mouse GRP receptor	binding		literature species comparison	0.001 ± 0.0004 nM
CCc1ccc(CCNC(=O)c2c(O)c(O)cc3c(O)c(-c4c(C)cc5c(C(=O)NCCc6ccc(CC)cc6)c(O)c(O)cc5c4O)c(C)cc23)cc1	Mcl-1 (human)	binding, fluorescence polarization		together with: fluorescent BH3 Bid peptide	~1000 nM
O=C(OC(C(F)(F)F)C(F)(F)F)N1CCC(C(O)(c2ccc3c(c2)OCO3)c2ccc3c(c2)OCO3)CC1	mouse monoacylglycerol lipase	inhibitor			15 nM
CCc1ccc(Cn2cc(-c3cc(-c4ccc(Br)cc4)nc(N)n3)c3ccccc32)cc1	EGFR L858R human	inhibitor			99 nM
O=C(Nc1ccc2nc(NC(=O)c3ccco3)sc2c1)c1ccco1	Plasmodium falciparum ENT1	[3H]adenosine uptake	PfENT1-expressing yeast		3 ± 1.3 nM
CC[C@H](C)[C@H](NC(C)=O)C(=O)N[C@H]1CSSC[C@@H](C(=O)N[C@H](C(N)=O)[C@@H](C)O)NC(=O)[C@H](CCCNC(=N)N)NC(=O)[C@H](Cc2c[nH]cn2)NC(=O)[C@H](C)NC(=O)CNC(=O)[C@H](Cc2c[nH]c3ccccc23)NC(=O)[C@H](CC(=O)O)NC(=O)[C@H](CCC(N)=O)NC(=O)[C@H](Cc2c[nH]c3ccccc23)NC(=O)[C@H](C(C)C)NC1=O	complement classical pathway	ELISA			1200 nM
CCOC(=O)c1cc(NC(=O)c2ccc(C)cc2)n(Cc2ccc(F)cc2)n1	P2Y14 receptor	antagonist			640 nM

Excerpt of the above:
Structure (SMILES)	target	test	system	conditions	IC50
O=C(c1ccc(Br)cc1)[C@H]1[C@H](c2cn(-c3ccccc3)nc2-c2ccccc2)C2CC3CCCCC3N2[C@]12C(=O)Nc1ccc(Cl)cc12 (stereo partly shown)	CDK2	enzyme activity, inhibitor			35 nM
CCCCCCCCCCCCCC(=O)N[C@@H](CO)C(=O)N[C@H](C(=O)N[C@@H](Cc1ccc(O)cc1)C(=O)N[C@@H](CCCNC(=N)N)C(=O)N[C@@H](CCCNC(=N)N)C(=O)NCC(=O)N[C@@H](C)C(=O)N[C@@H](CCCNC(=N)N)C(=O)N[C@@H](CCCNC(=N)N)C(=O)N[C@@H](Cc1c[nH]c2ccccc12)C(=O)N[C@@H](CCCNC(=N)N)C(=O)N[C@@H](CCCCN)C(=O)N[C@@H](CC(C)C)C(=O)O)[C@@H](C)CC	atypical PKC	MARK2 phosphorylation, inhibitor			~20000 nM
CCc1ccc(CCNC(=O)c2c(O)c(O)cc3c(O)c(-c4c(C)cc5c(C(=O)NCCc6ccc(CC)cc6)c(O)c(O)cc5c4O)c(C)cc23)cc1	Mcl-1 (human)	binding, fluorescence polarization		together with: fluorescent BH3 Bid peptide	~1000 nM
COc1cc(F)c(C(C)C)cc1C1=C(CN2C(=O)O[C@H](c3cc(C(F)(F)F)cc(C(F)(F)F)c3)[C@@H]2C)CC(C)(C)CC1	CETP	ex vivo CETP activity, inhibitor	cynomolgus monkey	single dose 0.1 to 30 mg/kg	83 nM
Nc1cc(COc2c(Cl)cc(C[C@H](N)C(=O)O)cc2Cl)c2oc(-c3ccccc3)nc2c1	LAT1 human	L-leucine uptake	HT-29	together with: [14C]-L-leucine	60 nM
